Assay results of several laboratories.
Parts stem from different laboratories: compare values within a part only.
Sequence of UniProt P57059 (whole entry, looked up): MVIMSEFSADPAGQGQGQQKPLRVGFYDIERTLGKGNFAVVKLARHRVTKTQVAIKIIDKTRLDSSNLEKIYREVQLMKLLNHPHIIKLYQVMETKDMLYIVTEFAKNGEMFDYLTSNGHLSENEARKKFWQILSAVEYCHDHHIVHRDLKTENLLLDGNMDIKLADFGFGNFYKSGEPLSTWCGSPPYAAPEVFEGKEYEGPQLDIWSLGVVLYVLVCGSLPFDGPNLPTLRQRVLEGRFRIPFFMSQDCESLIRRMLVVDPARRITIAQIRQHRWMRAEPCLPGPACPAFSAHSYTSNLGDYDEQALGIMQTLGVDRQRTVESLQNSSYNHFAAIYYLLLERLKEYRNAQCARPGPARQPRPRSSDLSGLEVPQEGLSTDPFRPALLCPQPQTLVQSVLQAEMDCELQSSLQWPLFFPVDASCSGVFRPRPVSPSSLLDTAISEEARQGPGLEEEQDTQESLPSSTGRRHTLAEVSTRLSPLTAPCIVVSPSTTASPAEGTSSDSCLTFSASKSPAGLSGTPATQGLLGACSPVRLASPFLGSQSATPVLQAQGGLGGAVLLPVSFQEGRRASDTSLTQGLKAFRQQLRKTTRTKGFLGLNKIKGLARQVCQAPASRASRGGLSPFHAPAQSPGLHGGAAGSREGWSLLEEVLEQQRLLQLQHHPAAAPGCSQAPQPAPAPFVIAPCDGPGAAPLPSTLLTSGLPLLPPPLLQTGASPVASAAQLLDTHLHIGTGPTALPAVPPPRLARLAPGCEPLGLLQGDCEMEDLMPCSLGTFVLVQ
Sequence of UniProt O14733 (whole entry, looked up): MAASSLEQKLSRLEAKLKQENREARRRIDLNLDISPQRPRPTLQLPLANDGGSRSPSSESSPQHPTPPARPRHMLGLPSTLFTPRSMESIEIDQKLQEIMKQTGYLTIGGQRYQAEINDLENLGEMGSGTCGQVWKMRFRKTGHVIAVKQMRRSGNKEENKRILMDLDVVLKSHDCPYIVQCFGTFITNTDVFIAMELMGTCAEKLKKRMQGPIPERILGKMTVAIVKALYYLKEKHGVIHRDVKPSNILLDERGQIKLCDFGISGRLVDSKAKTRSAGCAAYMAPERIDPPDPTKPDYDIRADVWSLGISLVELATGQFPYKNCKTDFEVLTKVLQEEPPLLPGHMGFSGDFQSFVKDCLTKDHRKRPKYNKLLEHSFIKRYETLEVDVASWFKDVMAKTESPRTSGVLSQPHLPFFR
Sequence of UniProt O15264 (whole entry, looked up): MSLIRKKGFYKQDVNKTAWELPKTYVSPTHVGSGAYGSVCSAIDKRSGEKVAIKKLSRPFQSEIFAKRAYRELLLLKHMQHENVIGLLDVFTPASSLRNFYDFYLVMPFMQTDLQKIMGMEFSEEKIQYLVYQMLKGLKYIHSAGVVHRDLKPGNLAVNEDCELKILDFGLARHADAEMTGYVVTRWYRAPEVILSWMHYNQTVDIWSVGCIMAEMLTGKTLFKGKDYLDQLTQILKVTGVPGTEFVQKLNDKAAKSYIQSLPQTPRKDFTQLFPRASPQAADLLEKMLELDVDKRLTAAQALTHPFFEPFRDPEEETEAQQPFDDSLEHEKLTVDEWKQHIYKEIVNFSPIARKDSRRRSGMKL
Sequence of UniProt P61075 (whole entry, looked up): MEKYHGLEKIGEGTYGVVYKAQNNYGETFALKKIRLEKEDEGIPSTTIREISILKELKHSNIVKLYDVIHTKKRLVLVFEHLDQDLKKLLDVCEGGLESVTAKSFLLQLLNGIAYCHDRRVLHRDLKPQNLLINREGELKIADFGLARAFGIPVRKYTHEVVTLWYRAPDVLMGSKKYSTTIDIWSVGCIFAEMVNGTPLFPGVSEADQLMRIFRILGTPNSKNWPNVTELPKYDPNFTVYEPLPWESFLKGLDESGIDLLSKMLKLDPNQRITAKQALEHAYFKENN
Sequence of UniProt Q9H2X6 (whole entry, looked up): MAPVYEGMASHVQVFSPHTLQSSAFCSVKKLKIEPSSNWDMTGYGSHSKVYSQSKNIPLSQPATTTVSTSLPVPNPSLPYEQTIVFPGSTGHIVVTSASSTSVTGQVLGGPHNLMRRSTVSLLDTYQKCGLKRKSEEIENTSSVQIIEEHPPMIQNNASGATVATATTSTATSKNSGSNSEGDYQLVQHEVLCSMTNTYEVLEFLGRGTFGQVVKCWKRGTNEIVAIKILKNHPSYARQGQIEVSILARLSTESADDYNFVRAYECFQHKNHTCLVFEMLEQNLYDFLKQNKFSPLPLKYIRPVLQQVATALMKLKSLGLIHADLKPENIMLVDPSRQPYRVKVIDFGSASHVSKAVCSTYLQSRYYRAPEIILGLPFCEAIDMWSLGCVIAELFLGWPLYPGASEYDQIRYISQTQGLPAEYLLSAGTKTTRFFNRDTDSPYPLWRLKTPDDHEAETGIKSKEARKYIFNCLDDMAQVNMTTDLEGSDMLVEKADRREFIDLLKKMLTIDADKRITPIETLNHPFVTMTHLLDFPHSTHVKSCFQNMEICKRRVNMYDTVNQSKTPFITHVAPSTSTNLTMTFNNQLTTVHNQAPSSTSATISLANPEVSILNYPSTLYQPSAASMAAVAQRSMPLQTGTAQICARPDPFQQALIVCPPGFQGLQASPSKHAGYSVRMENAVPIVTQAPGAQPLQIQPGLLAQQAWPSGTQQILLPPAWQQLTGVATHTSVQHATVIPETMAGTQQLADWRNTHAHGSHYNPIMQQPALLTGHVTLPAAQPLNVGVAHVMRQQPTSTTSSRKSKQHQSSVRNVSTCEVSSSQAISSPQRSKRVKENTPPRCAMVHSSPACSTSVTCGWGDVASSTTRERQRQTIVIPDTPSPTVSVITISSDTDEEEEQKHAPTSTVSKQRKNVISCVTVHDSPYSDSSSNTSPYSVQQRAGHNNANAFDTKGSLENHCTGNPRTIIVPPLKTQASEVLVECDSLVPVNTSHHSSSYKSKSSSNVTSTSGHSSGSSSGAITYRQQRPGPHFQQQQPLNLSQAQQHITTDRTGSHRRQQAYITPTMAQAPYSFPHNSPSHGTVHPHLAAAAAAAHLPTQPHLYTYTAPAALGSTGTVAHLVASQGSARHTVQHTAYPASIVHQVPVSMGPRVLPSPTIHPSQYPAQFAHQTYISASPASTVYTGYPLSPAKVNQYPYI
Sequence of UniProt P07949 (whole entry, unmodified, looked up): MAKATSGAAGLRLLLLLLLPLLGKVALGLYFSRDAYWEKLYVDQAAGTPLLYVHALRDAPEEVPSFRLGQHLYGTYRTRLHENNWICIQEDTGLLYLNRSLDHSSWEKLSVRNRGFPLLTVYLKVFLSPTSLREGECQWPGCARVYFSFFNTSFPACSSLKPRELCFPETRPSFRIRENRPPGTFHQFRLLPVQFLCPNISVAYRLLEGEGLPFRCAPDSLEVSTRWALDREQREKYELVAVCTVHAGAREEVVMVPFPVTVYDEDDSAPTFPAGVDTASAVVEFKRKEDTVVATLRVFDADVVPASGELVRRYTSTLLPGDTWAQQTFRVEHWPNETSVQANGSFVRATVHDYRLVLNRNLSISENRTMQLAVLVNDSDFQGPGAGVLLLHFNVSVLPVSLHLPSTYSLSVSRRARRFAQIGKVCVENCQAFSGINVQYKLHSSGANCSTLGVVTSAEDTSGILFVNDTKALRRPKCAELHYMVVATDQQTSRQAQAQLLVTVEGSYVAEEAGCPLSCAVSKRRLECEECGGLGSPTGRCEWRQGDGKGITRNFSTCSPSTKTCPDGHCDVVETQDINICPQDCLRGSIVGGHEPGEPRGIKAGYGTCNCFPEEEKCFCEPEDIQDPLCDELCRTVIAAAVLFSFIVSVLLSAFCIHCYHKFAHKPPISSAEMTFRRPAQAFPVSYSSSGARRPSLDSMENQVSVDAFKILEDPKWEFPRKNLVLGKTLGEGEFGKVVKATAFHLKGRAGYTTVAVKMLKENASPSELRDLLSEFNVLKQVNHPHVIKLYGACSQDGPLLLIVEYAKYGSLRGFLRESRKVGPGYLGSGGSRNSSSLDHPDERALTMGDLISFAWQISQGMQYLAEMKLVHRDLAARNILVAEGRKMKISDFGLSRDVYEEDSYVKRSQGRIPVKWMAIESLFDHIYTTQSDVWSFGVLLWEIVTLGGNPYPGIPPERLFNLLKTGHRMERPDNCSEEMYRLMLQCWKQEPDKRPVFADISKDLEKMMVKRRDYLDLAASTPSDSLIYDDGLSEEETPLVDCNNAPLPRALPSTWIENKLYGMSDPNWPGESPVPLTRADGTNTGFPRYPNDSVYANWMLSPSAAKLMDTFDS

Block 1
Target: Ribosomal protein S6 kinase beta-2 (RPS6KB2, Homo sapiens, UniProt Q9UBS0)
Sequence of UniProt Q9UBS0 (whole entry, looked up): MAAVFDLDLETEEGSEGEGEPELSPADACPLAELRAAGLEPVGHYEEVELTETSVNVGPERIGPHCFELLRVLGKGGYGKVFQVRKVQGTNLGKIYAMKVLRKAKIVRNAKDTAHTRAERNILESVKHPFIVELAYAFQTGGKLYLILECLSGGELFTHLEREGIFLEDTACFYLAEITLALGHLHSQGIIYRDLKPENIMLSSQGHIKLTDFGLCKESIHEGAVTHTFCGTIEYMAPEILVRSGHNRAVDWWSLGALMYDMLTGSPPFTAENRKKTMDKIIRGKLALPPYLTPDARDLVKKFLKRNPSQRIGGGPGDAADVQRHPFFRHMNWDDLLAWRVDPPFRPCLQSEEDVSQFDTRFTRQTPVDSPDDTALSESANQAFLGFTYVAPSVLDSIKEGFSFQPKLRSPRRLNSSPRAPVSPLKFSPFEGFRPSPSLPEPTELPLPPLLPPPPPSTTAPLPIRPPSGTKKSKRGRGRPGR
Read-out: enzyme activity
Mode: inhibitor
Tested at: 0.5 µM
Relative to: control
COc1cc2ncnc(Nc3ccc(Oc4ccccc4)cc3)c2cc1OC gave a remaining activity of 97.4%.
The remaining activity of Nc1ncnc2n[nH]c(Nc3ccc(F)cc3)c12 is reported as 96.8%.
COc1ccc(C(=O)Nc2sc3c(c2C(N)=O)CCCC3)cc1OC gave a remaining activity of 101%.
For Oc1ccc(-c2nc(-c3ccncc3)c(-c3ccc(F)cc3)[nH]2)cc1, the remaining activity was 91.4%.
For Cn1c2ccccc2c2c3c(c4c5ccccc5n(CCC#N)c4c21)CNC3=O, the remaining activity was 21.6%.
For CN(C)c1ccc(C=C2C(=O)Nc3ccccc32)cc1, the remaining activity was 101%.
With C#Cc1cccc(Nc2ncnc3cc(OCCOC)c(OCCOC)cc23)c1 the remaining activity was 103%.
O=S(=O)(c1cccc2cnccc12)N1CCCNCC1 gave a remaining activity of 81.9%.
With O=C(O)c1ccc2c3c1cccc3c(=O)n1c3ccccc3nc21 the remaining activity was 98%.
O=C(CCCc1ccc(-c2ccccc2F)cc1)Nc1ccc(O)cc1 gave a remaining activity of 104%.
The remaining activity of O=C1NC(=O)C(c2cn(CCCO)c3ncccc23)=C1c1cnccn1 is reported as 94.7%.
Cc1ccc(Nc2nccc(N(C)c3ccc4c(C)n(C)nc4c3)n2)cc1S(N)(=O)=O gave a remaining activity of 103%.
For COc1ccc(OC)c2c(=S)c3ccccc3[nH]c12, the remaining activity was 105%.
For CNC(=O)c1cc(Oc2ccc(NC(=O)Nc3ccc(Cl)c(C(F)(F)F)c3)cc2)ccn1, the remaining activity was 103%.
For Nc1[nH]nc2nc3ccccc3nc12, the remaining activity was 102%.
N#CC(C#N)=C(N)/C(C#N)=C/c1ccc(O)cc1 has a remaining activity of 96.8%.

Block 2
SMILES: CO[C@@H]1[C@H](N(C)C(=O)c2ccccc2)C[C@H]2O[C@]1(C)n1c3ccccc3c3c4c(c5c6ccccc6n2c5c31)C(=O)NC4
Mode: inhibitor
Tested at: 1 µM
Dual specificity mitogen-activated protein kinase kinase 7 (MAP2K7, Homo sapiens, UniProt O14733); enzyme activity — inhibition: 8%.
Proto-oncogene tyrosine-protein kinase receptor Ret (RET, Homo sapiens, UniProt P07949, M918T); enzyme activity — inhibition: 95%.
Cyclin-dependent kinase 2 homolog (CRK2, Plasmodium falciparum, UniProt P61075); enzyme activity — inhibition: 9%.
Serine/threonine-protein kinase SIK1 (SIK1, Homo sapiens, UniProt P57059); enzyme activity — inhibition: 95%.
For Hormonally up-regulated neu tumor-associated kinase (HUNK, Homo sapiens, UniProt P57058); enzyme activity: inhibition read 0%.
It gave 3% for inhibition (Macrophage-stimulating protein receptor (MST1R, Homo sapiens, UniProt Q04912); enzyme activity).
For Homeodomain-interacting protein kinase 2 (HIPK2, Homo sapiens, UniProt Q9H2X6); enzyme activity: inhibition read 5%.
The inhibition was 18% (Serine/threonine-protein kinase D3 (PRKD3, Homo sapiens, UniProt O94806); enzyme activity).
Mitogen-activated protein kinase 13 (MAPK13, Homo sapiens, UniProt O15264); enzyme activity — inhibition: 0%.
The inhibition was 50% (Ribosomal protein S6 kinase alpha-5, N-terminal kinase domain (RPS6KA5, Homo sapiens, UniProt O75582)).

Block 3
Read-out: AlphaScreen signal
Technique: AlphaScreen counter screen
Medium: His6 peptide without bromodomain
Tested at: 50 µM
Notes: assay interference check
COc1ccc(Nc2nccc(-c3cccc(C#N)c3)n2)cc1 gave an inhibition of 6.7%.
With CC[C@H](CO)Nc1nc(NCc2ccccc2)c2ncn(C(C)C)c2n1 the inhibition was 16%.
With Cc1ccc(F)c(NC(=O)Nc2ccc(-c3cccc4[nH]nc(N)c34)cc2)c1 the inhibition was 66.4%.
For Cc1ccc(NC(=O)c2ccc(CN3CCN(C)CC3)cc2)cc1Nc1nc(-c2cccnc2)cs1, the inhibition was 56.6%.
With CCOC(=O)C1=C(C)NN=C(Nc2cccc(C)c2C)S1 the inhibition was 29.6%.
With COc1cc2c(Oc3ccc4[nH]c(C)cc4c3F)ncnc2cc1OCCCN1CCCC1 the inhibition was 45%.
With COc1cc(N2CCC(N3CCN(C)CC3)CC2)ccc1Nc1ncc(Cl)c(Nc2ccccc2P(C)(C)=O)n1 the inhibition was 27.7%.
With COc1cc2nccc(Oc3ccc(NC(=O)Nc4cc(C)on4)c(Cl)c3)c2cc1OC the inhibition was 34.2%.
With COc1ccc(-c2nnc3ccc(SC(C(C)=O)C(C)=O)nn23)cc1OC the inhibition was -1.1%.
NC1(c2ccc(-c3nc4ccn5c(=O)[nH]nc5c4cc3-c3ccccc3)cc2)CCC1 has an inhibition of 25.4%.
With O=c1[nH]c(CN2CCC(O)C2)nc2c1SC1C=CC(c3ccc(O)cc3)=CC21 (stereo not drawn) the inhibition was 25.6%.

Block 4
Species: mouse
Medium: microsomes or S9
Tested at: 2 µM
Time: 0.5 h
CCOC(=O)c1[nH]c(C)c(C(=O)CN(CC(C)C)S(=O)(=O)c2ccc(F)cc2)c1C gave a remaining compound of 0%.
Cc1nc(C(C)N(C)CCCS(=O)(=O)N(C)C)c(C)s1 (stereo not drawn) has a remaining compound of 52.8%.
With CC(C)CNCC(=O)Nc1ccc(C(=O)N2c3ccc(S(=O)(=O)N4CC(c5ccccc5)NC4=O)cc3CC2C)cc1 (stereo not drawn) the remaining compound was 3.24%.
With COc1nc(C)cc(C)c1-c1nc2c([nH]1)CC(C)(C)CNC2=O the remaining compound was 78.4%.
Cc1c(C)n(C2CCCCC2)c2ncn(CCCO)c(=N)c12 has a remaining compound of 44.5%.
The remaining compound of COc1cccc2c1OCC(C(=O)N1CCC3(CCCO3)CC1)C2 (stereo not drawn) is reported as 17%.
With Cc1ncc(CN(C)c2nnc(C)c(C)c2C#N)s1 the remaining compound was 5.17%.
With O=c1c2cnn(-c3ccc(F)cc3)c2ncn1Cc1cccnc1 the remaining compound was 95.2%.
